Published values collected from several papers.
Protocols differ between the studies behind these lines. Several values in a cell are separate wells, animals, samples, runs or records. Numbers after ± are the reported error.
IDO1: Indoleamine 2,3-dioxygenase 1 (IDO1, Homo sapiens, UniProt P14902)
Chain of UniProt P14902 (whole entry, looked up): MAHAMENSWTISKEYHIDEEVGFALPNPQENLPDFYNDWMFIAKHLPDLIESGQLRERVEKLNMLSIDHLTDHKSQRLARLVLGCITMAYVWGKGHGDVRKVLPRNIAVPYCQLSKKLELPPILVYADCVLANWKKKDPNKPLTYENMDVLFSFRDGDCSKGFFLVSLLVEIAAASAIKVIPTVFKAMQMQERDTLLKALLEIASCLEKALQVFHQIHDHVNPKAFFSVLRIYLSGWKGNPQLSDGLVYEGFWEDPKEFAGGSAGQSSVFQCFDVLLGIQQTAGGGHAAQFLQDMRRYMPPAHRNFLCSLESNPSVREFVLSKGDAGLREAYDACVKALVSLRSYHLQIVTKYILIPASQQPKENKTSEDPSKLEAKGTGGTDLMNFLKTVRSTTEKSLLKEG
TRPV1: Transient receptor potential cation channel subfamily V member 1 (TRPV1, Homo sapiens, UniProt Q8NER1)
Chain of UniProt Q8NER1 (whole entry, looked up): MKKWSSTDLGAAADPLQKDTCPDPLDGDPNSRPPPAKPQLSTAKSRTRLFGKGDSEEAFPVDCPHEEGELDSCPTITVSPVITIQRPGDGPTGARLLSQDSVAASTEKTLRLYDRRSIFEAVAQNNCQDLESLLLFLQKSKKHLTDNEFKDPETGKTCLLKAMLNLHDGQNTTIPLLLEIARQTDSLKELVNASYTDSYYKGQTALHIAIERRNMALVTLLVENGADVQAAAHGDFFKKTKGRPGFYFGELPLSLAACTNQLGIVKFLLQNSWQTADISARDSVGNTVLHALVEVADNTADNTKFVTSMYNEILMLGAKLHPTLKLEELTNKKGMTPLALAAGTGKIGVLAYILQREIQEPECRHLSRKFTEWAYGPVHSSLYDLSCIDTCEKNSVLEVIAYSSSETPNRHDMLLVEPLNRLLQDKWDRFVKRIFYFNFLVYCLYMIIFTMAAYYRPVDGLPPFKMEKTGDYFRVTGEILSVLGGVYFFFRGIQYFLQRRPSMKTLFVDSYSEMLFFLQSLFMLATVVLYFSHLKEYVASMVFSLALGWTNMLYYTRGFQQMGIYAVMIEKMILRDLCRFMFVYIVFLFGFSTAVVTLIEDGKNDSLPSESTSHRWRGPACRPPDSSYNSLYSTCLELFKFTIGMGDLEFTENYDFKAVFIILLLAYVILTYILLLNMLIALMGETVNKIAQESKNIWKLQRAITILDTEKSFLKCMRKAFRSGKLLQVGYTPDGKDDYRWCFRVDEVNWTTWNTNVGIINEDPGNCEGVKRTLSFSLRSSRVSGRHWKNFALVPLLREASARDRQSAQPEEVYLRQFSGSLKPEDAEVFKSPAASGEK
AKR1C1: Aldo-keto reductase family 1 member C1 (AKR1C1, Homo sapiens, UniProt Q04828)
Chain of UniProt Q04828 (whole entry, looked up): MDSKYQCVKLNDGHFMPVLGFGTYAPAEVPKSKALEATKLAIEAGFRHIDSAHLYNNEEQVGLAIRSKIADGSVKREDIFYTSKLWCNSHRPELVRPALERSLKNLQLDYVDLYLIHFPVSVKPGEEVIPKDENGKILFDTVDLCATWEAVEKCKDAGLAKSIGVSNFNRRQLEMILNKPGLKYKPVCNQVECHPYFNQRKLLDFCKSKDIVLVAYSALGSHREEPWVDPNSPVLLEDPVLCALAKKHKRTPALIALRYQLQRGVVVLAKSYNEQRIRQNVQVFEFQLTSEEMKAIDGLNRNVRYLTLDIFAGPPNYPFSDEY
PPO3: PPO3 (Agaricus bisporus, UniProt C7FF04)
Chain of UniProt C7FF04 (whole entry, looked up): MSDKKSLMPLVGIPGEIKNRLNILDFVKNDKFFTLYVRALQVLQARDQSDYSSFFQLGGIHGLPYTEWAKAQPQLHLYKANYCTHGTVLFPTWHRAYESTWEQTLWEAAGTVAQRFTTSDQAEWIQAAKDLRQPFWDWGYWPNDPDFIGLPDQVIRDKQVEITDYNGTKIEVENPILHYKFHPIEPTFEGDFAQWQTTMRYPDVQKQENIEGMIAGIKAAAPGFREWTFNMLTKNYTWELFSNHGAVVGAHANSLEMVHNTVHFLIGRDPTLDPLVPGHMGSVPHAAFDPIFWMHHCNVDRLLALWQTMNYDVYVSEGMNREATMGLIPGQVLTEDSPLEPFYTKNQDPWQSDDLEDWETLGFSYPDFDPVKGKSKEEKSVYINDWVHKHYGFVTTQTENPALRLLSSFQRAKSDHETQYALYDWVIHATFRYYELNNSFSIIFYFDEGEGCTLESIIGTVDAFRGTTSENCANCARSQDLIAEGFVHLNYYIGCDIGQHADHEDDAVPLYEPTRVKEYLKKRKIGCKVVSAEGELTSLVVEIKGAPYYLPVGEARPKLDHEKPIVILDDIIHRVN
SIRT1: NAD-dependent protein deacetylase sirtuin-1 (SIRT1, Homo sapiens, UniProt Q96EB6)
Chain of UniProt Q7Z2W7 (whole entry, looked up): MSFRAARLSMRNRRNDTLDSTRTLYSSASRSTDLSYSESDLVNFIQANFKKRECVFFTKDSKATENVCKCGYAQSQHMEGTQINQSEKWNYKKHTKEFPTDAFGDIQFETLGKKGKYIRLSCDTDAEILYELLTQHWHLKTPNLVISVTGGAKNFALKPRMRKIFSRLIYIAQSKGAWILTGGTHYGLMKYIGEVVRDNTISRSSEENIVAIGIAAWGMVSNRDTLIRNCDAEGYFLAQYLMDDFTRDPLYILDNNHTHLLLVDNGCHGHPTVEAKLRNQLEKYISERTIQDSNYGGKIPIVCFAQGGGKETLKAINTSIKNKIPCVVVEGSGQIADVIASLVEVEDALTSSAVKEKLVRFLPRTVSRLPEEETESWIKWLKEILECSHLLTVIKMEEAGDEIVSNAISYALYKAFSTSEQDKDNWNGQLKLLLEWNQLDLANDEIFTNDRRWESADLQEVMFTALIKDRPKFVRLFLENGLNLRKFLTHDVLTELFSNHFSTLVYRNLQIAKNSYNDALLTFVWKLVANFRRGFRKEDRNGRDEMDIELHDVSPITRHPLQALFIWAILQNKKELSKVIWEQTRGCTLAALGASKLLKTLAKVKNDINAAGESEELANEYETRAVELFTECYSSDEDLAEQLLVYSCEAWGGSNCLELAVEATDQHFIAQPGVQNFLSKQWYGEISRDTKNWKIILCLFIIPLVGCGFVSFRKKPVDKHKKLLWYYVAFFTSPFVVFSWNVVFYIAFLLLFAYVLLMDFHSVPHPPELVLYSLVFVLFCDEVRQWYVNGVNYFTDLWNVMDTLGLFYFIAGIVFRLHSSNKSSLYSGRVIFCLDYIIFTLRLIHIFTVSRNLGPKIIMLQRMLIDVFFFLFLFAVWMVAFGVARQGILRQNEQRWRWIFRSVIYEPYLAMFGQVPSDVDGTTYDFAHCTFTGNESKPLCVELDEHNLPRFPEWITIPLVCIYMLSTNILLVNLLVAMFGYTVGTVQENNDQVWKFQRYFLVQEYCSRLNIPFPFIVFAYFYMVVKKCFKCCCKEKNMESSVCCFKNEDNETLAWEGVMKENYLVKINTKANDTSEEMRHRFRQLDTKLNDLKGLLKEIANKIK
Chain of UniProt Q96EB6 (whole entry, looked up): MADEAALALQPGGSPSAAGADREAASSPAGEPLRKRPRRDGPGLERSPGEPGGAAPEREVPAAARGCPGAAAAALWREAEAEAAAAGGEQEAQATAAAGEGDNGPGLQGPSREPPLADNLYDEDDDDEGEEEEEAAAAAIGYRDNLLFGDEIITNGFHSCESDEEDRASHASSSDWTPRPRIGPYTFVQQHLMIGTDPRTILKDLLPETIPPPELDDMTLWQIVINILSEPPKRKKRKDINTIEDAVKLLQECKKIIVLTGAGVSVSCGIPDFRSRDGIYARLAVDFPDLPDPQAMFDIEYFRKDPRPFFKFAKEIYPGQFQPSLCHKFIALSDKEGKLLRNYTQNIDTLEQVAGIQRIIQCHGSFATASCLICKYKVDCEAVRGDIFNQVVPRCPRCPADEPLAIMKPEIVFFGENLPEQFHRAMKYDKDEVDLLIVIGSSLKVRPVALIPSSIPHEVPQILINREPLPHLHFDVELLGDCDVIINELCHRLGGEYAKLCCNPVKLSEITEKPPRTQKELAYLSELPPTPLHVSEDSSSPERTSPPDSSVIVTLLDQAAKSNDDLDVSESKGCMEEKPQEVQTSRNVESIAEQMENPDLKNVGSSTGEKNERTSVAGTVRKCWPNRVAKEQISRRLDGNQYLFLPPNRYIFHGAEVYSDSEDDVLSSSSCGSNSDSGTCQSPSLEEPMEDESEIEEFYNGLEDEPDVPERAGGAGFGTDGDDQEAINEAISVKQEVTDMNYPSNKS
Chain of UniProt P34975 (whole entry, looked up): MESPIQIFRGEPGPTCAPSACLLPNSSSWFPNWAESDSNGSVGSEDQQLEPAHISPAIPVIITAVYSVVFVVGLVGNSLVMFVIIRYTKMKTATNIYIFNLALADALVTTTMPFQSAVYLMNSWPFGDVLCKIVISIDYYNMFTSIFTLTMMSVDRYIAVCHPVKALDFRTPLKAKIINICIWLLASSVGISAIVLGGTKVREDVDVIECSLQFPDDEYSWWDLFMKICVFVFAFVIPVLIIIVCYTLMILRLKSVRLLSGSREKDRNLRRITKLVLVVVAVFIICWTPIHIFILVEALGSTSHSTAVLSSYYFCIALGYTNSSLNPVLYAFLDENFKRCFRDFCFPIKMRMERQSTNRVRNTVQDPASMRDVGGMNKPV
Chain of UniProt Q99685 (whole entry, looked up): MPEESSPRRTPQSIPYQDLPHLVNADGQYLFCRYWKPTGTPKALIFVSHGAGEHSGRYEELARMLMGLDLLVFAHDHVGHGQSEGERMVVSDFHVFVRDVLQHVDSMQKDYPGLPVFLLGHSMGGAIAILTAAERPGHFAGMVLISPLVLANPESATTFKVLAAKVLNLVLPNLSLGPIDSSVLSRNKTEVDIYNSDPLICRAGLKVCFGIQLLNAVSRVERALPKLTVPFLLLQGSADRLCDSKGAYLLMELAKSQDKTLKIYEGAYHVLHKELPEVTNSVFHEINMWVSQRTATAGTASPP
Chain of UniProt P30656 (whole entry, looked up): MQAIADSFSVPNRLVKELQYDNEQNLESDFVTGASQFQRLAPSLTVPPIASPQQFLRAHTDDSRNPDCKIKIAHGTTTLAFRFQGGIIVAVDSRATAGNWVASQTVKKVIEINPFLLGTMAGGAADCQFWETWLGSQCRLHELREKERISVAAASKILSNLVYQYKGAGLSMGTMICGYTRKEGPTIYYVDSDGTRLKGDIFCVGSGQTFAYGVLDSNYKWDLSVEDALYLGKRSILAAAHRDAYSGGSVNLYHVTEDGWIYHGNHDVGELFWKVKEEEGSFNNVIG

| SMILES | target | assay | system | conditions | scale | inhibition |
| --- | --- | --- | --- | --- | --- | --- |
| CC(=O)c1cc(CO[C@H]2OC[C@H](O[C@@H]3O[C@H](CO)[C@@H](O)[C@H](O)[C@H]3O)[C@@H](O)[C@@H]2O)c2cccc(O[C@@H]3O[C@@H](C)[C@H](O)[C@@H](O)[C@H]3O)c2c1O | IDO1 | kynurenine formation |  | 100 µM |  | 52.35 ± 0.48% |
| CNC(=O)c1ccccc1Oc1nc(Nc2cc(OC)c(OC)c(OC)c2)ncc1Br | SRC (Homo sapiens, UniProt P12931) | enzyme activity, inhibitor |  | 1 µM |  | 30 to 50% |
| O=C(COc1ccc(Cl)c(Cl)c1)Nc1ccc[n+](Cc2ccc(Cl)c(Cl)c2)c1 | TRPV1 | calcium influx, antagonist | HeLa transfected | 1 µM, together with: capsaicin 5 µM |  | inhibited |
| C[C@@]12CC[C@@H]3c4ccc(O)c(Br)c4CC[C@H]3[C@@H]1CCC2=O | AKR1C1 | enzyme activity, inhibitor, absorbance |  | 100 µM, pH 9 |  | 14.2% |
| OB(O)c1ccc(OCc2ccccc2)nc1F | PRE2 (Saccharomyces cerevisiae S288c, UniProt P30656) | 20S proteasome activity |  | 100 µM, together with: Suc-LLVY-AMC |  | ≤ 20% |
| CCS(=O)(=O)c1ccccc1C(=O)N1CCN(c2nc3ccc(F)cc3s2)C[C@@H]1C | MGLL (Homo sapiens, UniProt Q99685) | enzyme activity, inhibitor |  | concentration not given |  | no effect |
| COc1ccc2c(c1)CC[C@@H]1[C@@H]2CC[C@@]2(C)C(=O)CC[C@@H]12 | AKR1C1 | enzyme activity, inhibitor, absorbance |  | 100 µM, pH 9 |  | 20% |
| NCCC(=O)N[C@@H](Cc1c[nH]c2ccccc12)C(=O)N[C@@H](Cc1ccc(Cl)cc1)C(=O)N[C@@H](Cc1ccccc1)C(N)=O | Ephrin type-A receptor 4, ectodomain (Epha4, Mus musculus, UniProt Q03137) | ephrin-A5 binding, antagonist, ELISA |  | 500 µM, together with: ephrin-A5-AP |  | > 50% |
| COc1cc2c(cc1Br)[C@H]1CC[C@@]3(C)C(=O)CC[C@H]3[C@@H]1CC2 | AKR1C1 | enzyme activity, inhibitor, absorbance |  | 10 µM, pH 9 |  | 7.1% |
| CCCC[C@H](NC(C)=O)C(=O)N1CCC[C@H]1C(=O)N[C@@H](CO)C(=O)N[C@@H](CO)C(=O)N[C@@H](C)C(=O)N[C@@H](CO)C(=O)N[C@]1(C)CCCCCCC=CCCC[C@@](C)(C(=O)N[C@@H](CCCCN)C(=O)N[C@@H](CCC(=O)O)C(=O)N[C@H](C(=O)N[C@@H](CCC(N)=O)C(N)=O)[C@@H](C)CC)NC(=O)[C@H](CCC(N)=O)NC(=O)[C@H](CCCCN)NC(=O)[C@H](CCCNC(=N)N)NC(=O)[C@H](CC(C)C)NC(=O)[C@H](CC(C)C)NC(=O)[C@H](CCC(N)=O)NC1=O | UBA1 (Homo sapiens, UniProt P22314) | ubiquitin thioester transfer to UBE2D2, inhibitor |  | concentration not given, staple-scanning screen |  | inactive |
| COc1ccc(O)c(C2=NN(c3ccc(S(N)(=O)=O)cc3)C(c3ccc(Br)cc3)C2)c1 (stereo not drawn) | CA9 (Homo sapiens, UniProt Q16790) | enzyme activity, inhibitor |  | 1 mM |  | 23% |
| Cc1ccc(C2=Nc3ccccc3SC(c3ccc([N+](=O)[O-])cc3)C2)cc1 (stereo not drawn) | PPO3 | enzyme activity, inhibitor |  | 25 µg/mL |  | 21% |
| O=c1c2sccc2n(CC2COc3ccccc3O2)c(=O)n1O (stereo not drawn) | APEX1 (Homo sapiens, UniProt P27695) | inhibitor |  | concentration not given, together with: AP1 substrate 150 nM |  | no inhibition |
| C[C@@]12CC[C@@H]3c4cc(I)c(O)cc4CC[C@H]3[C@@H]1CCC2=O | AKR1C1 | enzyme activity, inhibitor, absorbance |  | 100 µM, pH 9 |  | 42.5% |
| CCCCCCCCCCCCCC(=S)NCCCC[C@H](NC(=O)CNC(=O)CN)C(=O)NCC(=O)O | SIRT3 (Homo sapiens, UniProt Q9NTG7) | enzyme activity, inhibitor |  | 50 µM |  | 43% |
| COCC12C(=O)NC3C4(C(OC)CC1O)C1CC5(O)C(OC)C(O)C(OC(C)=O)(C1C5OC(=O)c1ccccc1)C3(O)C(OC)C24 (stereo not drawn) | GRK2 (Homo sapiens, UniProt P25098) | enzyme activity |  | 25 µM |  | inhibited |
| COc1cc2c(cc1Cl)[C@H]1CC[C@@]3(C)C(=O)CC[C@H]3[C@@H]1CC2 | AKR1C1 | enzyme activity, inhibitor, absorbance |  | 10 µM, pH 9 |  | 17% |
| CC(C)(O)Cn1nc(-c2ccccc2)c2c(Cl)c(-c3ccccc3)nnc21 | 60 kDa heat shock protein, mitochondrial (Homo sapiens, UniProt P10809) | chaperone activity |  | 0.846 µM, together with: citrate synthase aggregation |  | 87.1 ± 27.7% |
| Cc1cc(O)c2c(c1)[C@H]([C@@H]1O[C@H](CO)[C@@H](O)[C@H](O)[C@H]1O)c1cccc(O)c1C2=O | IDO1 | kynurenine formation |  | 100 µM |  | 61.5 ± 1.67% |
| CCC1(CC)C[C@@H](NC(=O)Nc2cccc3c(C)nccc23)c2cc(F)ccc2O1 | TRPV1 | proton-induced activation, inhibitor, FLIPR calcium | HEK293 expressing human TRPV1 | up to 11.25 µmol/L, pH 5.0 | partial inhibition | 23.7 ± 7.4% |
| C[C@@H](N)C1CCN(S(=O)(=O)c2cccc3c(=O)[nH]ccc23)CC1 | GRK1 (Homo sapiens, UniProt Q15835) | cell-free assay, competition with immobilised ligand |  | 10 µM |  | > 95% |

| SMILES | target | assay | system | conditions | scale | inhibition |
| --- | --- | --- | --- | --- | --- | --- |
| COc1cc(C(=O)NC2CCC(N3CCN(CC4CCC5(CCCC5)C4)CC3)CC2)c(F)cc1Nc1ncc2c(n1)N(C1CCCC1(F)F)CC(F)(F)C(=O)N2C (stereo not drawn) | ERBB2 (Homo sapiens, UniProt P04626) | cell-free assay, TR-FRET |  | 10 µM |  | 6.41% |
| NC(=O)C1CCCc2c1[nH]c1ccc(Cl)cc21 (stereo not drawn) | SIRT1 | enzyme activity, inhibitor, fluorescence |  | 10 µM |  | 98% |
| Cc1ccc2c(c1Br)C(O)(CC(=O)c1ccc3c(c1)OCO3)C(=O)N2 (stereo not drawn) | UAP1 (Homo sapiens, UniProt Q16222) | enzyme activity, HPAEC |  | concentration not given |  | no inhibition |
| Cc1ccc(C2=Nc3ccccc3SC(c3ccc(N(C)C)cc3)C2)cc1 (stereo not drawn) | PPO3 | enzyme activity, inhibitor |  | 25 µg/mL |  | 25% |
| C[C@]12CC[C@@H]3c4cc(Cl)c(O)cc4CC[C@H]3[C@@H]1CCC2=O | AKR1C1 | enzyme activity, inhibitor, absorbance |  | 10 µM, pH 9 |  | 50% |
| CCCC[C@H](C)/C=C(C)/C=C/C(=O)O | TRPV1 | calcium influx, fluorescence calcium |  | 0.1 to 10 µM, together with: 10 µM capsaicin |  | no effect |
| Cc1cc2c(c(O)c1O)C(=O)c1c(O)cc(O)cc1C2=O | DRD1 (Homo sapiens, UniProt P21728) | cAMP, antagonist | CHO | 50 µM |  | -30.4% |
| O=C1/C(=C/c2c(F)cccc2Cl)Oc2cc(O)ccc21 | ERO1-like protein alpha (Homo sapiens, UniProt Q96HE7, C104A/C131A/C166A) | enzyme activity, inhibitor, fluorescence |  | 10 µM |  | 38.7% |
| COc1ccc2c(c1Br)CC[C@@H]1[C@@H]2CC[C@@]2(C)C(=O)CC[C@@H]12 | AKR1C1 | enzyme activity, inhibitor, absorbance |  | 10 µM, pH 9 |  | 12.9% |
| NC(=O)c1ccc(C(=O)NOCc2ccc(Sc3cccc(Cl)c3)c(C(F)(F)F)c2)cc1 | HDAC2 (Homo sapiens, UniProt Q92769) | cell-free assay, inhibitor |  | 100 µM |  | 2.7% |
| C[C@H](O)CC(=O)Cc1cccc2oc(CO)cc(=O)c12 | IDO1 | kynurenine formation |  | 100 µM |  | 9.66 ± 4.7% |
| CC[C@H](C)[C@H](NC(=O)[C@H](CCCNC(=N)N)NC(=O)[C@H](CCCCN)NC(=O)[C@@H]1CCCN1C(=O)[C@@H]1CCCN1CCCN(CC[C@H](N)C(=O)O)C[C@H]1O[C@@H](n2cnc3c(N)ncnc32)[C@H](O)[C@@H]1O)C(=O)N[C@@H](C)C(N)=O | SETD7 (Homo sapiens, UniProt Q8WTS6) | enzyme activity, inhibitor |  | 33 µM |  | < 20% |
| C[C@H](NC(=O)CNC(=O)[C@@H]1CSSC[C@H](NC(=O)[C@H](C)NC(=O)CN)C(=O)N[C@@H](CCCNC(=N)N)C(=O)N[C@@H](CCCNC(=N)N)C(=O)N[C@@H](CCC(=O)O)C(=O)N[C@@H]([C@@H](C)O)C(=O)N[C@@H](C)C(=O)N[C@@H](Cc2c[nH]c3ccccc23)C(=O)N[C@@H](C)C(=O)N1)C(=O)O | Integrin alpha-V/beta-5 (Homo sapiens, UniProt P06756+P18084) | cell attachment to vitronectin | HT-29 | concentration not given |  | no inhibition |
| COc1ccc2c(c1Cl)CC[C@@H]1[C@@H]2CC[C@@]2(C)C(=O)CC[C@@H]12 | AKR1C1 | enzyme activity, inhibitor, absorbance |  | 100 µM, pH 9 |  | 21.4% |
| Cc1ccc(C2=Nc3ccccc3SC(c3ccc(C=CC(=O)c4ccccc4)cc3)C2)cc1 (stereo not drawn) | PPO3 | enzyme activity, inhibitor |  | 25 µg/mL |  | 54% |
| CC(C)[C@H](NC(=O)c1ccc2c(c1)nc(-c1c(F)cccc1Cl)n2C1CCCCC1)C(=O)O | SIRT1 | enzyme activity, inhibitor, fluorescence |  | 10 µM |  | < 30% |
| CCC(=O)N(C)c1ccc(Cl)c(Cl)c1 | Oprk1 (Rattus norvegicus, UniProt P34975) | ligand displacement, radioligand |  | 10 µM |  | 15.2% |
| Brc1ccccc1-c1nnc(CSc2nnnn2-c2ccccc2)o1 | OPRK1 (Homo sapiens, UniProt P41145) | ligand displacement, radioligand |  | 10 µM |  | 85% |
| Cn1nc(-c2ccc(Cl)cc2)c2cc(C(=O)NCCCN3CCCC3)sc21 | RAD51 (Homo sapiens, UniProt Q06609) | D-loop formation |  | 10 x IC50, together with: Ca2+ 1 mM | relative to: DMSO | > 2 fold |
| C[C@@H]1O[C@@H](OCc2cc(O)c3c(c2)[C@H]([C@@H]2OC[C@@H](O)[C@H](O)[C@H]2O)c2cccc(O)c2C3=O)[C@H](O)[C@H](O)[C@H]1O | IDO1 | kynurenine formation |  | 100 µM |  | 67.8 ± 1.38% |
| CC(=O)C12NC(C)(C)CC1(C)C(=O)C1=C2c2c(c3c4n2C(C)(C)CC2=C4C4(CC(C)(C)NC(C)(C4)C2=O)CC3(C)C)C(=O)C(C)(C)N1 (single isomer, unassigned; (+)) | TRPM8 (Homo sapiens, UniProt Q7Z2W7) | ion current, inhibitor, patch clamp | HEK-293T | 10 µM |  | 57.3% and 64.5% |

Repeated from above:
| SMILES | target | assay | system | conditions | scale | inhibition |
| --- | --- | --- | --- | --- | --- | --- |
| COc1ccc2c(c1Cl)CC[C@@H]1[C@@H]2CC[C@@]2(C)C(=O)CC[C@@H]12 | AKR1C1 | enzyme activity, inhibitor, absorbance |  | 100 µM, pH 9 |  | 21.4% |
| CCCC[C@H](C)/C=C(C)/C=C/C(=O)O | TRPV1 | calcium influx, fluorescence calcium |  | 0.1 to 10 µM, together with: 10 µM capsaicin |  | no effect |
| C[C@@]12CC[C@@H]3c4cc(I)c(O)cc4CC[C@H]3[C@@H]1CCC2=O | AKR1C1 | enzyme activity, inhibitor, absorbance |  | 100 µM, pH 9 |  | 42.5% |
| C[C@@H](N)C1CCN(S(=O)(=O)c2cccc3c(=O)[nH]ccc23)CC1 | GRK1 (Homo sapiens, UniProt Q15835) | cell-free assay, competition with immobilised ligand |  | 10 µM |  | > 95% |
| C[C@]12CC[C@@H]3c4cc(Cl)c(O)cc4CC[C@H]3[C@@H]1CCC2=O | AKR1C1 | enzyme activity, inhibitor, absorbance |  | 10 µM, pH 9 |  | 50% |
| COc1ccc2c(c1Br)CC[C@@H]1[C@@H]2CC[C@@]2(C)C(=O)CC[C@@H]12 | AKR1C1 | enzyme activity, inhibitor, absorbance |  | 10 µM, pH 9 |  | 12.9% |
| CC(=O)C12NC(C)(C)CC1(C)C(=O)C1=C2c2c(c3c4n2C(C)(C)CC2=C4C4(CC(C)(C)NC(C)(C4)C2=O)CC3(C)C)C(=O)C(C)(C)N1 (single isomer, unassigned; (+)) | TRPM8 (Homo sapiens, UniProt Q7Z2W7) | ion current, inhibitor, patch clamp | HEK-293T | 10 µM |  | 57.3% and 64.5% |
